Results collected from several papers.
Compare with care: the assays were run in different laboratories. “And” joins repeats or separate records; there may be more than shown. ± marks the error that the study gave.

With Fc1ccc(N2CCNCC2COc2ccc3c(c2)OCO3)cc1 (stereo not drawn) the remaining compound was 53 ± 1% (mouse liver microsomes; 90 min).
The remaining compound of CC[C@@H](C)[C@@H](NC(=O)[C@@H](Cc1ccc(O)cc1)NC(=O)[C@H]1CCCN1C(=O)[C@@H](CCCNC(=N)N)NC(=O)[C@H](N)Cc1c[nH]cn1)C(=O)N[C@H](C)C(=O)N[C@H](Cc1c[nH]cn1)C(=O)N[C@H](CCCNC(=N)N)C(=O)N[C@H](CCCCNC(=O)c1cccc(S(=O)(=O)F)c1)C(=O)N[C@H](Cc1ccc(O)cc1)C(=O)N[C@H](CO)C(=O)N[C@H](Cc1ccccc1)C(N)=O is reported as 108% and 90% (10% human serum; 24 h).
For CC(C)CC(=O)OC[C@H]1O[C@@](C#N)(c2ccc3c(N)ncnn23)[C@H](O)[C@@H]1O, the remaining compound was 0.891 ± 0.261% (mouse hepatocytes; 5 µM, 15 min).
For CCC[C@@](N)(CO)CCc1ccc(OCCCCCC(C)C)cc1, the remaining compound was 88% (dog liver microsomes; 1 h).
The remaining compound of CC[C@@H](C)[C@@H](NC(=O)[C@@H](Cc1ccc(O)cc1)NC(=O)[C@H]1CCCN1C(=O)[C@@H](CCCNC(=N)N)NC(=O)[C@H](N)Cc1c[nH]cn1)C(=O)N[C@H](C)C(=O)N[C@H](Cc1c[nH]cn1)C(=O)N[C@H](CCCNC(=N)N)C(=O)N[C@@H](C(=O)N[C@H](Cc1ccc(O)cc1)C(=O)N[C@H](CO)C(=O)N[C@H](Cc1ccccc1)C(N)=O)C(C)C is reported as 94.6% and 89.6% and 94.3% (10% human serum; 12 h).
The remaining compound of CC(C)(C)[C@H](NC(=O)C(F)(F)F)C(=O)N1C[C@H]2[C@@H]([C@H]1C(=O)N[C@H](C#N)C[C@@H]1CCNC1=O)C2(C)C is reported as 105% (mouse liver microsomes; 60 min).
C/C(=C\CCP(=O)(OCOC(=O)C1CCOCC1)Oc1ccc(C(C)C)cc1)CO (stereo not drawn) has a remaining compound of 0% (50% Sprague-Dawley rat plasma; 100 µM, 2 h, pH 7.5, 37 °C).
O=S(=O)(F)Oc1cc(C(F)(F)F)cc(C(F)(F)F)c1 has a remaining compound of 65% (HPLC-MS; HEPES buffer with 10% acetonitrile; 1 mM, 1 h, pH 7.4).
With CC(=O)OC/C(C)=C/CCP(=O)(OCOC(=O)CC1CCOCC1)Oc1ccc(C(C)C)cc1 (stereo not drawn) the remaining compound was 0% (50% Sprague-Dawley rat plasma; 100 µM, 2 h, pH 7.5, 37 °C).
c1ccc([C@@H]2C[C@H]2NC2CCNCC2)cc1 gave a remaining compound of 95% (LC-MS; PBS with 25% DMSO; 5 mM, 144 h, 37 °C).
For C/C(=C\CCP(=O)(OCOC(=O)CC1CCCCC1)Oc1ccc(C(C)C)cc1)CO (stereo not drawn), the remaining compound was 0% (50% CD1 mouse plasma; 100 µM, 2 h, pH 7.5, 37 °C).
The remaining compound of Cc1ncc2n1-c1ccc(Cl)cc1C(c1ccccc1F)=NC2 is reported as 100% (cell-free culture medium; 5 µM, 72 h, cell-free MPS plate; reference: initial amount).
C/C(=C\CCP(=O)(OCOC(=O)CC1CCOCC1)Oc1cccc2ccccc12)CO (stereo not drawn) gave a remaining compound of 0% (50% CD1 mouse plasma; 100 µM, 2 h, pH 7.5, 37 °C).
With COc1c(N2CC3CCCNC3C2)c(F)cc2c(=O)c(C(=O)OCc3cnc([N+](=O)[O-])s3)cn(C3CC3)c12 (stereo not drawn) the remaining compound was over 65% (LC-MS; human serum; 30 µM, 2 h; reference: initial amount).
The remaining compound of COc1ccc(C(=O)OCOP(=O)(CC/C=C(\C)CO)Oc2ccc(C(C)C)cc2)cc1 (stereo not drawn) is reported as 42% (50% Sprague-Dawley rat plasma; 100 µM, 2 h, pH 7.5, 37 °C).
The remaining compound of CCN(CC)CCOC(=O)c1ccc(N)cc1 is reported as 0% (human plasma; 24 h).
CC(=O)OC/C(C)=C/CCP(=O)(OCOC(=O)C1CCOCC1)Oc1ccc(C(C)C)cc1 (stereo not drawn) has a remaining compound of 0% (50% Sprague-Dawley rat plasma; 100 µM, 2 h, pH 7.5, 37 °C).
For O=S(=O)(F)c1cc(C(F)(F)F)cc(C(F)(F)F)c1, the remaining compound was 17% (HEPES buffer; 1 mM, 20 h, pH 7.4, 10% acetonitrile).

Excerpt of the above:
With Fc1ccc(N2CCNCC2COc2ccc3c(c2)OCO3)cc1 (stereo not drawn) the remaining compound was 53 ± 1% (mouse liver microsomes; 90 min).
The remaining compound of CC[C@@H](C)[C@@H](NC(=O)[C@@H](Cc1ccc(O)cc1)NC(=O)[C@H]1CCCN1C(=O)[C@@H](CCCNC(=N)N)NC(=O)[C@H](N)Cc1c[nH]cn1)C(=O)N[C@H](C)C(=O)N[C@H](Cc1c[nH]cn1)C(=O)N[C@H](CCCNC(=N)N)C(=O)N[C@H](CCCCNC(=O)c1cccc(S(=O)(=O)F)c1)C(=O)N[C@H](Cc1ccc(O)cc1)C(=O)N[C@H](CO)C(=O)N[C@H](Cc1ccccc1)C(N)=O is reported as 108% and 90% (10% human serum; 24 h).
